# Results gathered from unrelated publications.
# A part holds a random share of what one study measured.
# Sequence of UniProt P21917 (whole entry, looked up): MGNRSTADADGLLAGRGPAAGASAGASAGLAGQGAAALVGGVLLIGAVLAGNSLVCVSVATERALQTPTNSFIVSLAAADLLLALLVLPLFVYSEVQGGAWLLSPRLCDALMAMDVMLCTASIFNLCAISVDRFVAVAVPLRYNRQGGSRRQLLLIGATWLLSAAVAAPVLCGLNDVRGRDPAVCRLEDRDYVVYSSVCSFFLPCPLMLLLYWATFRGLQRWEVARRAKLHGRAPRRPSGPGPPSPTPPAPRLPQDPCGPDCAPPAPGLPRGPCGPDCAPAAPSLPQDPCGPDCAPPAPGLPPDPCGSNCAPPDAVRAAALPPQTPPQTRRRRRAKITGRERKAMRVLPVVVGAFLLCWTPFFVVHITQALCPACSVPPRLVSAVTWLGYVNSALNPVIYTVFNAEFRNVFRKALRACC

# Study 1 — read-out: enzyme activity; action: inhibitor; tested at: 0.5 µM; relative to: control
# Target: Serine/threonine-protein kinase Sgk3 (SGK3, Homo sapiens, UniProt Q96BR1)
# Sequence of UniProt Q96BR1 (whole entry, looked up): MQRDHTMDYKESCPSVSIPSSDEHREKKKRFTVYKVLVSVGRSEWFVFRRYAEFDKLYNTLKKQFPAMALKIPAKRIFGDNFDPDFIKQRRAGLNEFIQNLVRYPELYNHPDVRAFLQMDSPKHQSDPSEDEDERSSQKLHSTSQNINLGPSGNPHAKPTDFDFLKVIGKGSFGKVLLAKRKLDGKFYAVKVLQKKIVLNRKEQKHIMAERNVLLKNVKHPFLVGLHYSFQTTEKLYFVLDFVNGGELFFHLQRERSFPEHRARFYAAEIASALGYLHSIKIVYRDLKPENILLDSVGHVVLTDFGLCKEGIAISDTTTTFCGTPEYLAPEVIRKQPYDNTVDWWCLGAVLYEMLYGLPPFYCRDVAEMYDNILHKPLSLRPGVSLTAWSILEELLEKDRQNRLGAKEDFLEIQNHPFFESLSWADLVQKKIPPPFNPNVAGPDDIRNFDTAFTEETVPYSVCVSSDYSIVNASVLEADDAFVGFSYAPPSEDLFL
Compound,remaining activity
O=C1c2ccccc2-c2nc3nnnn3nc21,90.4%
O=C(c1ccccc1)c1ccc(N2CCOCC2)cc1O,105%
CC(C)N(CCC(=O)c1ccc2ccccc2c1)Cc1ccccc1,106%
NC(=O)c1cccc(-c2cc(Nc3ccc(OC(F)(F)F)cc3)ncn2)c1,104%
CNc1cc2c(Nc3cccc(Br)c3)ncnc2cn1,96.8%
CC(C)(C)c1nc2c3cc[nH]c(=O)c3c3cc(F)ccc3c2[nH]1,96.6%
O=c1c(-c2ccc(F)cc2)c(-c2ccncc2)[nH]n1-c1ccc(Cl)cc1,100%
c1cc(-c2cnn3cc(-c4ccc(OCCN5CCCCC5)cc4)cnc23)ccn1,93.9%
Nc1nc(Nc2ccc(S(N)(=O)=O)cc2)nn1C(=S)Nc1c(F)cccc1F,98.4%
N#CC(c1ccnc(NCCc2cccnc2)n1)c1nc2ccccc2s1 (stereo not drawn),107%
O=C(O)/C=C/c1cc(Br)c(Br)c(Br)c1Br,85.7%

# Study 2 — action: agonist
# Target: Beta-1 adrenergic receptor (ADRB1, Homo sapiens, UniProt P08588)
# Sequence of UniProt P08588 (whole entry, looked up): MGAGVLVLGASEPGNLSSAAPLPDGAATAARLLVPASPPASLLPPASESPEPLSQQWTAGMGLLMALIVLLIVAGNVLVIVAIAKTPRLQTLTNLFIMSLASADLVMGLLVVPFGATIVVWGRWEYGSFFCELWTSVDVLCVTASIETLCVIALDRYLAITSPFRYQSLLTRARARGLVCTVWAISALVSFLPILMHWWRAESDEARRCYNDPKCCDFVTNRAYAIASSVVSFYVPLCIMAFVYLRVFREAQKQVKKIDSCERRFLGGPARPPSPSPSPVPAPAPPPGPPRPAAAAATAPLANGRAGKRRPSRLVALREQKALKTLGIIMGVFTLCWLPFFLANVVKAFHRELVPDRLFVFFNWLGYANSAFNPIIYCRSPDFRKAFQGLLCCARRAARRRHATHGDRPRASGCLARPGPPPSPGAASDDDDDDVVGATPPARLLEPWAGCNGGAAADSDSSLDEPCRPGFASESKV
Compound,EC50 [µM]
NCC(=O)Nc1cccc(-c2nn3c(=O)cc(N4CCNCC4)nc3s2)c1,≥ 100
CCOc1cccc(C(=O)N2CCN(c3ccccc3OC)CCC2C)c1 (stereo not drawn),≥ 100
NCC(Cc1ccc(O)cc1)c1ccc(O)cc1 (stereo not drawn),≥ 100
Clc1cccc(N2CCN(Cc3cnn(-c4ccccc4)c3)CC2)c1,≥ 100
O=c1c2cc(-c3ccc(F)cc3)nn2ccn1CC(O)c1ccc2c(c1)OCO2 (stereo not drawn),≥ 100
Fc1ccc(-c2ccc3ncc(Nc4cc(F)cc(N5CCOCC5)c4)n3n2)cc1,≥ 100
COc1cc(CNCC2CCOCC2)ccc1OCC(O)CN(C)C1CCCCC1 (stereo not drawn),≥ 100
Cn1c(C(O)C(O)c2ccccc2)nc2ccccc21 (stereo not drawn),≥ 100

# Study 3 — method: KINOMEscan; tested at: 10 µM; relative to: DMSO control; reading: lower = stronger binding
# Structure (SMILES): COc1cc(C(=O)N2CCC(N3CCN(C)CC3)CC2)ccc1Nc1ncc2c(n1)N(C)c1ccccc1C(=O)N2C
target,binding [%]
MAP4K5,100
PRKCE,100
PDGFRB,100
WEE1,100
PAK6,98
CSNK1G2,100
CDKL5,100
PIM3,88
ULK2,67
PCTK2,83
PRKD1,28
CDK7,86
TAOK1,28

# Further values, each from its own experiment
Structure (SMILES),target,read-out,method,endpoint,result
O=C([C@H]1C[C@H](O)CN1c1ccc(Cl)cc1)N1CC2COCC(C1)N2Cc1ccc(Cl)cc1,"D(4) dopamine receptor (DRD4, Homo sapiens, UniProt P21917)",binding,radioligand binding,Ki,> 10 µM

# A few entries again (study 2):
Compound,EC50 [µM]
COc1cc(CNCC2CCOCC2)ccc1OCC(O)CN(C)C1CCCCC1 (stereo not drawn),≥ 100
Fc1ccc(-c2ccc3ncc(Nc4cc(F)cc(N5CCOCC5)c4)n3n2)cc1,≥ 100
NCC(=O)Nc1cccc(-c2nn3c(=O)cc(N4CCNCC4)nc3s2)c1,≥ 100
Clc1cccc(N2CCN(Cc3cnn(-c4ccccc4)c3)CC2)c1,≥ 100
